# Experimental data gathered from unrelated publications.
# Each line is one published result; not all experiments were run side by side. ± marks the error that the study gave.
SMILES,test,system,conditions,how to read,quantity,value
C#CCCCC(F)/C=C/C(=O)NC1(c2ccc(-c3nc4ccn5c(=O)[nH]nc5c4cc3-c3ccccc3)cc2)CCC1 (centres unmarked),,"mouse, MDA-MB-468 xenograft","oral, 200 mg/kg twice weekly",relative to: DMSO vehicle,tumour growth suppression,26%
CCN(C(=O)c1cc(F)ccc1Oc1nncnc1N1CCC2(C1)CN([C@H](CCCN(C)CCOC)C(C)C)C2)C(C)C,,"mouse, subcutaneous MOLM-14 AML xenograft","oral, 50 mg/kg daily, 5 weeks",,tumour regression,97%
CN1CCN(C(=O)N(CCCCCCC(=O)NO)c2ccc(-c3ccc4cnn(C)c4c3)cc2)CC1,,"NOD.CB17 SCID mouse, MM.1S xenograft","intraperitoneal, 40 and 60 mg/kg twice weekly",relative to: vehicle,tumour size,decreased
COc1ccc2nc(NC(=O)c3ccc(C(N)c4ccccc4)cc3)sc2c1 (centres unmarked),,Nod-Scid mouse H1155 xenograft,"intraperitoneal, 25 mg/kg twice daily, 10 to 15 days",,tumour growth,no effect
Cc1cc(C)c(S(=O)(=O)N(CC(=O)O)c2ccc(Nc3ccnc(N4CCCC4)n3)cc2)c(C)c1,,BALB/c nude mouse HCT-116 xenograft,"intraperitoneal, 50 and 100 mg/kg/day, 21 d",,tumour growth,decreased
NC(=O)c1cccnc1.O.O=c1[nH]cc(F)c(=O)[nH]1.O=c1[nH]cc(F)c(=O)[nH]1.O=c1[nH]cc(F)c(=O)[nH]1,,nude mouse HCT-116 xenograft,"0.012 mmol/kg/day, 21 days",,tumour weight,0.59 ± 0.13 g
Cc1cc(O)cc(O)c1C(=O)c1c2c3c(c(O)cc(C)c3oc1=O)C(=O)c1c(O)cc(O)cc1-2,,"Bel-7402 xenograft, mouse","intraperitoneal, 7 mg/kg daily, day 21",,tumour volume,966 ± 249 mm³
CS(=O)(=O)c1sc(NC(=O)Nc2ccc(Cl)cc2)c2c1C=CCC2,,"MIA PaCa-2 xenograft, mouse","intraperitoneal, 50 mg/kg daily, 28 days",,tumour volume,225 ± 53.6 mm³
CC=C1C(OC2OC(CO)C(O)C(O)C2O)OC=C(C(=O)OC)C1CC(=O)OCC1OC(OCCc2ccc(O)cc2)C(O)C(O)C1O (centres unmarked),,"BALB/c mouse, orthotopic colon 26 tumour","oral, 109.2 mg/kg daily, 10 days",relative to: untreated tumour group,tumour to body weight ratio decrease,30.8%
C=CC(=O)N1C[C@H](C)N(c2nc(OC[C@@]34CCCN3C[C@H](F)C4)nc3c(F)c(-c4ccc(F)c5sc(N)c(C#N)c45)c(C(F)(F)F)cc23)C[C@H]1C,,"NCI-H358 xenograft, mouse","oral, 10 mg/kg once daily, 28 days",,tumour regression,100%
C[C@H](NC(=O)CNC(=O)[C@H](CCC(=O)O)NC(=O)[C@H](CCC(=O)O)NC(=O)[C@H](CC(=O)O)NC(=O)[C@@H]1CCCN1C(=O)[C@H](Cc1ccccc1)NC(=O)[C@H](CS)NC(=O)[C@H](Cc1ccc(O)cc1)NC(=O)CCCNC(=O)CNC(=O)CNC(=O)[C@@H](C)NC(=O)CN)C(=O)N[C@@H](CS)C(=O)N[C@@H](Cc1ccc(O)cc1)C(N)=O [technetium-99m labelled],SPECT,"BALB/c nude mouse, SKBR3 tumour","intravenous, 37 MBq, 30 min",,tumour to non-tumour ratio,2.19

# Excerpt of the above:
SMILES,test,system,conditions,how to read,quantity,value
C=CC(=O)N1C[C@H](C)N(c2nc(OC[C@@]34CCCN3C[C@H](F)C4)nc3c(F)c(-c4ccc(F)c5sc(N)c(C#N)c45)c(C(F)(F)F)cc23)C[C@H]1C,,"NCI-H358 xenograft, mouse","oral, 10 mg/kg once daily, 28 days",,tumour regression,100%
